Measurements from different studies.
Parts stem from different laboratories: compare values within a part only.

Study 1
Target: Interferon regulatory factor 5, full length, phosphomimetic (IRF5, Homo sapiens, UniProt Q13568-2, residues 1-514, S451D/S453D/S456D/S462D)
Technique: protein-binding microarray
Molecule type: double-stranded DNA, one strand shown
Medium: in vitro
Tested at: 940 nM top
Setting: 60-bp whole probe
With: salmon DNA 0.4 mg/ml
Relative to: random background probes
Reading: higher = stronger binding
`GCCTAGCACTTAGGTATCGACTAGCGGTTAGTGCTAGTCTTGATTCGCTTGACGCTGCTG`: “fitted relative affinity” 6.36 z-score.
For `GCCTAGCACGACGGACTGGGTCTCGGGCCGTGCTAGGTCTTGATTCGCTTGACGCTGCTG`, “fitted relative affinity” read -0.467 z-score.
`GCCTAGCACCCGCTTTTTTTTTTTTTTTTGTGCTAGGTCTTGATTCGCTTGACGCTGCTG`: “fitted relative affinity” 1.28 z-score.
For `GCCTAGCACTGTGAAACCTTCAGGCACGTGTGCTAGGTCTTGATTCGCTTGACGCTGCTG`, “fitted relative affinity” read -0.074 z-score.

Study 2
Target: Histone acetyltransferase KAT6A, both winged helices, GST fusion (KAT6A, Homo sapiens, UniProt Q92794, residues 1-181)
Technique: protein binding microarray
Molecule type: double-stranded DNA, one strand shown
Medium: in vitro
Tested at: not given
Setting: 8-mer, flanks averaged, mean of 2 arrays, mostly near background
Relative to: not given
Reading: higher = stronger binding
Residues (chain): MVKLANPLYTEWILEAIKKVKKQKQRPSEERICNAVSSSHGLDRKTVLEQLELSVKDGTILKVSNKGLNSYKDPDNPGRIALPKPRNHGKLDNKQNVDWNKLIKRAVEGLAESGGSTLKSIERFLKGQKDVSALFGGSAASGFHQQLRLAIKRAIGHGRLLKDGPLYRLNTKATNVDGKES
`ATGTCCAA` has an E-score of 0.0523.
With `TCATTAGA` the E-score was -0.0362.
`AAATACTC` has an E-score of -0.118.
`GGGCAAGA` has an E-score of 0.0291.

Study 3
Target: Prothrombin, mature alpha-thrombin (F2, Homo sapiens, UniProt P00734)
Technique: aptamer microarray, sandwich
Molecule type: DNA with 2'F-ANA
Medium: in vitro
Tested at: 200 nM
Setting: whole 15-mer aptamer, many near background
With: Cy3 exosite-II aptamer, 400 nM
Reading: higher = stronger binding
`GGTTGGTGTGGTTGG (2'F-ANA at 1 3 4 5 9 14 15)`: “mean fluorescence intensity” 57.1 a.u.
Under “mean fluorescence intensity”, `GGTTGGTGTGGTTGG (2'F-ANA at 1 2 7 9 11 12)` is recorded as 295 a.u.
Under “mean fluorescence intensity”, `GGTTGGTGTGGTTGG (2'F-ANA at 2 4 5 7 12 13 15)` is recorded as 95 a.u.

Single results of other studies
The fold induction of `PhoQ, residues 284 288 289 292 302 303 TNASYF` is reported as 7.39 (PhoP, residues 12 14 15 18 19 VQGLL (Escherichia coli, UniProt P23836); Sort-seq, item: YFP reporter; E. coli; PhoQ-PhoP variant library, with: 10 µM Mg2+; relative to: high Mg2+ state, higher = stronger signaling).

Repeated from above (study 1):
`GCCTAGCACTTAGGTATCGACTAGCGGTTAGTGCTAGTCTTGATTCGCTTGACGCTGCTG`: “fitted relative affinity” 6.36 z-score.
